Measurements gathered from unrelated publications.
Positions count from the first letter of the parent shown. ± gives the spread as reported.
Putative PAS/PAC sensor protein full length assumed: Putative PAS/PAC sensor protein full length assumed (Nakamurella multipartita, UniProt C8XJT7)
P1: C1ql1 globular C1q domain (Mus musculus); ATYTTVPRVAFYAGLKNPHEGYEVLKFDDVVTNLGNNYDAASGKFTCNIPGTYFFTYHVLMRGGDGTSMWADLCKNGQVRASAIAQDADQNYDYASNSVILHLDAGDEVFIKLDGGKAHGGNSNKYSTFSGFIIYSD
P2: RPC82 (Saccharomyces cerevisiae); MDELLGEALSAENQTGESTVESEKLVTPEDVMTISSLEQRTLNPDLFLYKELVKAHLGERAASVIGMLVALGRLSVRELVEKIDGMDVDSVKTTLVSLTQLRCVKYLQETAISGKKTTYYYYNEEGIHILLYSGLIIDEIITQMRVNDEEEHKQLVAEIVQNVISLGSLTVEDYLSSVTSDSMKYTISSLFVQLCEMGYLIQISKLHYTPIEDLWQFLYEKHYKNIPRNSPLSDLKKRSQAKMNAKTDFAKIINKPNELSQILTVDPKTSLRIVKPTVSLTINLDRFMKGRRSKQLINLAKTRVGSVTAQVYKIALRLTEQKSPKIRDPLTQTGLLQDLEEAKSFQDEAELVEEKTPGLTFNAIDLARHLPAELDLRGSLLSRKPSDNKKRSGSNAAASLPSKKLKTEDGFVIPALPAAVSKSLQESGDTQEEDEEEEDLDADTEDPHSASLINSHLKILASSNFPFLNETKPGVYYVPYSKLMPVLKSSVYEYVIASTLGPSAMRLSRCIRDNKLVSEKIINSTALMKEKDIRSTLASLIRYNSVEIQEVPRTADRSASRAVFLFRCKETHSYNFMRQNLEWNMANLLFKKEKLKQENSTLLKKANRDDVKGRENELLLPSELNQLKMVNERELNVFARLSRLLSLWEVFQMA
P3: JPH2 N-terminal region (Danio rerio); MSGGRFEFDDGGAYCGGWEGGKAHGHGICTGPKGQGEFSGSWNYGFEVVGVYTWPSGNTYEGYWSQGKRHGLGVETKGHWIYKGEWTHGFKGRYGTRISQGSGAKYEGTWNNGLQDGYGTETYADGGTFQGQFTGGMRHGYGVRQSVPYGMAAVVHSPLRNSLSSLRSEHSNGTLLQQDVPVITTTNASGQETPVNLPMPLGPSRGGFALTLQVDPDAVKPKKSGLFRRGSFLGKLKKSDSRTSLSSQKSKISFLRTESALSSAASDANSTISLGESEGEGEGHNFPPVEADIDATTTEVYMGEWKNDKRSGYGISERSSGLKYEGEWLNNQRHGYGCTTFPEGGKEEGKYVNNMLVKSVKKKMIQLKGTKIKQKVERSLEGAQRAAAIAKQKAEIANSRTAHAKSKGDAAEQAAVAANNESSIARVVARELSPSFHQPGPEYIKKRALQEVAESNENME; partner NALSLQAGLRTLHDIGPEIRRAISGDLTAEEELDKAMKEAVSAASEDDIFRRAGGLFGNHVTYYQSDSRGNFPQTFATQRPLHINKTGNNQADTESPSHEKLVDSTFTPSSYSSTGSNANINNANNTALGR
P4: JPH2 N-terminal region (Mus musculus); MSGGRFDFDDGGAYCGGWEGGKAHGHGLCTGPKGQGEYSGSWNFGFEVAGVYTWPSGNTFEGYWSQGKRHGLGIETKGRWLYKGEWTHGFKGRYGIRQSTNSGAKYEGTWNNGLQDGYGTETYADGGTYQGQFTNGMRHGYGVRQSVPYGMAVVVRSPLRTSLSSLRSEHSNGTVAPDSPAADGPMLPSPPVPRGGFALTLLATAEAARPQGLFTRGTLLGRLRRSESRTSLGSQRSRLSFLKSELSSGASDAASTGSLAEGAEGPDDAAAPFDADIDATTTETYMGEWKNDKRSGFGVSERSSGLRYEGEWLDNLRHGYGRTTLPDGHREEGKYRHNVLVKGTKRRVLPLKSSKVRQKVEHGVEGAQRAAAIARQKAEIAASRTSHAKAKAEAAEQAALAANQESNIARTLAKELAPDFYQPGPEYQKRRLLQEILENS
Sequence of UniProt P60335 (whole entry, looked up): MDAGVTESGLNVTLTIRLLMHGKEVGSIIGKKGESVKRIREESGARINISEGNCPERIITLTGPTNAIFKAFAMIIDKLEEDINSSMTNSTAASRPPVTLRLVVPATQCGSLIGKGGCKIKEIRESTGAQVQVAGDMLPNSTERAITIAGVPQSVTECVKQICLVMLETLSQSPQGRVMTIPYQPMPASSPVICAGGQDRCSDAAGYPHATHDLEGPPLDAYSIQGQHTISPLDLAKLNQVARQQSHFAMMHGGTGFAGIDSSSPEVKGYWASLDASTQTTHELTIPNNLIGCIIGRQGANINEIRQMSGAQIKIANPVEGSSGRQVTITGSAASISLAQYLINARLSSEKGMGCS
Sequence of UniProt P38996 (whole entry, looked up): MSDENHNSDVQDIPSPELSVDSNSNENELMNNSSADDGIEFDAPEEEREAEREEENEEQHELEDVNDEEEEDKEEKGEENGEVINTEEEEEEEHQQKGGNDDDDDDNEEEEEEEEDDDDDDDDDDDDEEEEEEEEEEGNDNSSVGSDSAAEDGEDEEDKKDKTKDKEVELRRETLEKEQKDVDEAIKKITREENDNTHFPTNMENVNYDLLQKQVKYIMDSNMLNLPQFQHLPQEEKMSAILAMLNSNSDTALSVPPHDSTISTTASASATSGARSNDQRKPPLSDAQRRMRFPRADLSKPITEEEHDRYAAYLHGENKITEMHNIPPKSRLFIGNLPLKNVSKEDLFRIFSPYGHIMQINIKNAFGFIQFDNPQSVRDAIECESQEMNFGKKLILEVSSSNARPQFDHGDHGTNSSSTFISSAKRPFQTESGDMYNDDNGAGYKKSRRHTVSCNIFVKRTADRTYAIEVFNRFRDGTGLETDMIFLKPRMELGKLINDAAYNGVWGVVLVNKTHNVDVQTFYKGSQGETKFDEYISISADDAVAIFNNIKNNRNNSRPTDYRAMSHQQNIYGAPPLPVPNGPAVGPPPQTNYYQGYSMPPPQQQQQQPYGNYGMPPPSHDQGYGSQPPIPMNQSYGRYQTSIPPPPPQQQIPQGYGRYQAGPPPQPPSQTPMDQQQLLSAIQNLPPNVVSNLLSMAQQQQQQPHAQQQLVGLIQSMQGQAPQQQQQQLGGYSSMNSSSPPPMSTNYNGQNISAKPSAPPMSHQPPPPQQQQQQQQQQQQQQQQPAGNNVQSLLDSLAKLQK
Sequence of UniProt O26901 (whole entry, looked up): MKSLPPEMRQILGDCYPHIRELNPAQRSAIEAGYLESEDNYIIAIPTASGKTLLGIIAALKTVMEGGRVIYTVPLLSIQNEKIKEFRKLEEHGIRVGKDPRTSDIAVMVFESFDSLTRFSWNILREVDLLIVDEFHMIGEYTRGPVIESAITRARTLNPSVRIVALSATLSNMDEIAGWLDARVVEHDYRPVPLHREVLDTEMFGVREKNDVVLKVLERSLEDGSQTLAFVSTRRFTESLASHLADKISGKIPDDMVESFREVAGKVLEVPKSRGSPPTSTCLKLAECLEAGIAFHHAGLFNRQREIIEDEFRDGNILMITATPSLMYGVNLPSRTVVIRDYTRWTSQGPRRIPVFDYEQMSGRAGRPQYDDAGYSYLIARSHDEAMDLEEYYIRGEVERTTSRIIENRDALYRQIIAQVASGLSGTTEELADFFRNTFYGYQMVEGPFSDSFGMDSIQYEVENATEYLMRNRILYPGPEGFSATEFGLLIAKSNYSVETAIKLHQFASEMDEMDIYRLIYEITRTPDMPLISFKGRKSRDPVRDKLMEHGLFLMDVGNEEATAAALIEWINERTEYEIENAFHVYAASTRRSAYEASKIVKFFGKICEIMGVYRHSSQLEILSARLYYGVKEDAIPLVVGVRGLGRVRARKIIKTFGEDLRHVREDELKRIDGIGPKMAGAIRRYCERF
Sequence of UniProt P21693 (whole entry, looked up): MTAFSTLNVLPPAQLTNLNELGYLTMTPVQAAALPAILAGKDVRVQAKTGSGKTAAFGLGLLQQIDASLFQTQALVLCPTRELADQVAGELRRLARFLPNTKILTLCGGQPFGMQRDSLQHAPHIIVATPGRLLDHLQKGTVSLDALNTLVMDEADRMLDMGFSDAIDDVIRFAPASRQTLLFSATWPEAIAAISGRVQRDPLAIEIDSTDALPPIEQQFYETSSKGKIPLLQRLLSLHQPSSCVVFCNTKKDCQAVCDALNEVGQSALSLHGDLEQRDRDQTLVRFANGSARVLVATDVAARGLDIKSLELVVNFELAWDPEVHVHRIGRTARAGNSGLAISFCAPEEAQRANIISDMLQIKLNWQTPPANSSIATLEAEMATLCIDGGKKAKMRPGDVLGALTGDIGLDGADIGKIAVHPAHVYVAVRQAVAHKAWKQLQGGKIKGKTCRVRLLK
Sequence of UniProt Q9SJQ6 (whole entry, looked up): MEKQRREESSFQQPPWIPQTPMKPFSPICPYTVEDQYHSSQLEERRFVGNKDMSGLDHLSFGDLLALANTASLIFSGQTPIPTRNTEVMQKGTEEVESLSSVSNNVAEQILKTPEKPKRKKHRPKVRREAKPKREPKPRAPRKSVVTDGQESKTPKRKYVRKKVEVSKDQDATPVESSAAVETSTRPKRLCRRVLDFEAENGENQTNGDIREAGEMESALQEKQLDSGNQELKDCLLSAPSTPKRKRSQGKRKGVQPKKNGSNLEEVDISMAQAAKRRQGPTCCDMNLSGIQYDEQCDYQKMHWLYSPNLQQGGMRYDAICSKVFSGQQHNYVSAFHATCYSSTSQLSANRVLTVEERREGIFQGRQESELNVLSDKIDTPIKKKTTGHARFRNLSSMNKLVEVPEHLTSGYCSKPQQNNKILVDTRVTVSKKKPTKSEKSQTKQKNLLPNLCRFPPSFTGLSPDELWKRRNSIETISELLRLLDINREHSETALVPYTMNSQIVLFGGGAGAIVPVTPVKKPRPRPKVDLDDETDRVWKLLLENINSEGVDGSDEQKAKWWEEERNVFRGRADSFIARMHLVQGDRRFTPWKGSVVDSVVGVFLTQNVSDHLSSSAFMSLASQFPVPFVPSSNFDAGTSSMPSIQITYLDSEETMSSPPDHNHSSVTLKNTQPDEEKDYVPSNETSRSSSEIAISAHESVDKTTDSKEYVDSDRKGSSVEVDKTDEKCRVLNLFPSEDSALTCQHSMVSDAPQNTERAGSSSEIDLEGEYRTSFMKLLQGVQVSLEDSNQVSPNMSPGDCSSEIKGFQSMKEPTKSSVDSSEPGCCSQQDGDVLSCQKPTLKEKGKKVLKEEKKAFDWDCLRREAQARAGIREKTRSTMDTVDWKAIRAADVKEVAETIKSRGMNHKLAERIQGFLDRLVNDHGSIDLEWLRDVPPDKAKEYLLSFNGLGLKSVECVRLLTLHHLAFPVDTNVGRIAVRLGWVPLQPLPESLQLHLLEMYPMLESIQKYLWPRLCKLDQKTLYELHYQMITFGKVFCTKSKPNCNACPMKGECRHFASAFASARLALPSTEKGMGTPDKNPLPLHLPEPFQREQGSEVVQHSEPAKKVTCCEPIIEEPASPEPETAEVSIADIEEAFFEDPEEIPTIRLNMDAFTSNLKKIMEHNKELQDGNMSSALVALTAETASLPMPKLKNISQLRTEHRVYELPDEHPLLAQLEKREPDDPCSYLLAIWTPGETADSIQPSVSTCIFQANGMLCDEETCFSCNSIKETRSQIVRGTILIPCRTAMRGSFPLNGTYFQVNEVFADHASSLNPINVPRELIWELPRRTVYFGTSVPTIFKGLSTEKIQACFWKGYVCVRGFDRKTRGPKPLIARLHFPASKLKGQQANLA

Molecule	target or system	test	system	setting	how to read	endpoint	value
UUUUCUUUUUUCUUAUUCUUAUU (ssRNA)	NAB3 321-415 (Saccharomyces cerevisiae, UniProt P38996)	fluorescence anisotropy	RNA	–	–	Kd	48 ± 2 µM
P1 D72N	ADGRB3 CUB domain (Homo sapiens)	ITC	–	together with: Ca2+ 2 mM	–	Kd	6 µM
P2 K403A K404A L405A K406A E408A D409A	BRF1 (Saccharomyces cerevisiae)	co-IP	–	–	baseline: unchanged protein, higher = more partner bound	relative binding	0.48
AUUUUUUUUUUUUAGGUCUUAAGGGUAUGGCUGUUCGCCAUUU (structured RNA)	dbpA full length assumed (Escherichia coli, UniProt P21693)	SPR	folded RNA	KCl 50 mM, steady state, no ATP	–	Kd	0.0603 ± 0.0004 µM
DNA 1 TCACGCGGGATCAATGTGTTCTTTCAGCTCCGGTCACGCTGACCAGGAATACCTCACTACC / DNA 2 GGTAGTGAGGTATTCCCCCGTAAGGGTCCGTAAGGATGGTCAGCGTGACCGGAGCTGAAAGAACACCCGTAAGGGTCCGTAAGGACATTGATCCCGCGTGA (structured DNA; four-way junction, 5-methyl-dC)	ROS1 1-1393 (Arabidopsis thaliana, UniProt Q9SJQ6)	EMSA	folded DNA	130 nM	–	binding	binds
GGAUUGUUACUGAUAAAGCAGGCAAAACC (ssRNA; hairpin, two internal loops)	licT 1-56 Q32N (Bacillus subtilis, UniProt P39805)	SPR	folded RNA	–	–	Kd	0.05 ± 0.02 µM
DNA 1 CAACGTCATAGACGATTACATTGCTACATGGAGCTGTCTAGAGGATCCGA / DNA 2 GTCGGATCCTCTAGACAGCTCCATGATCACTGGCACTGGTAGAATTCGGC / DNA 3 TAGCAATGTAATCGTCTATGACGTT (dsDNA; partial fork, lagging strand only)	hel308 1-690 (Methanothermobacter thermautotrophicus, UniProt O26901)	EMSA	folded DNA	–	–	binding	binds
GGUUUGUUACUGAUAAAGCAGGCAAGACC (ssRNA (Bacillus subtilis); hairpin, two internal loops)	sacY 1-55 (Bacillus subtilis, UniProt P15401)	SPR	folded RNA	–	–	Kd	6.2 ± 2.5 µM
CUCUCUUACACAUUCCA (ssRNA)	nusB full length assumed D118N (Escherichia coli, UniProt P0A780)	fluorescence anisotropy	RNA	–	–	Kd	12.2 ± 1.6 µM
P3 S165F	CACNA1C JBM (Mus musculus)	Strep pull-down	–	read off a plot	baseline: unchanged protein, higher = more binding	relative binding	33%
GCCCTGAAAGATTATGGAATGAGATTAGGGTAAAGGAAGAGAGCATAATCTTTCAGGGC (hairpin DNA; hairpin, 16 bp stem, 27 nt loop)	topA full length assumed (Escherichia coli, UniProt P06612)	fluorescence anisotropy	folded DNA	together with: EDTA	–	Kd	0.0004 ± 0.00012 µM
CCUUGAAGCAGACGACC (structured RNA)	Putative PAS/PAC sensor protein full length assumed	32P well-retention assay	folded RNA	together with: blue light	–	binding	no binding
GCCCTGAAAGATTATGGAATGCGATTAGGGTAAAGGAAGAGAGCATAATCTTTCAGGGC (hairpin DNA; hairpin, 16 bp stem, 27 nt loop)	topA full length assumed R169A (Escherichia coli, UniProt P06612)	fluorescence anisotropy	folded DNA	together with: EDTA	–	Kd	0.00086 ± 0.00015 µM
AAUUGCUACCCAAUGCCUGGCCCAAGGGCAUUCCCAAAGCUUA (ssRNA)	Pcbp1 full length assumed (Mus musculus, UniProt P60335)	EMSA	RNA	–	–	binding	binds
P4 S165Y	CACNA1C JBM (Mus musculus)	Strep pull-down	–	3 µM, read off a plot	baseline: unchanged protein, higher = more binding	relative binding	64%
GCCCTGAAAGATTATGGAATGGGATTAGGGTAAAGGAAGAGAGCATAATCTTTCAGGGC (hairpin DNA; hairpin, 16 bp stem, 27 nt loop)	topA full length assumed R173A (Escherichia coli, UniProt P06612)	fluorescence anisotropy	folded DNA	together with: EDTA	–	Kd	0.00061 ± 9e-05 µM
GGGAGGACGAUGCGGGGGCAGCAUGUGUCGUUCCUUCGCGUCCGGCGGGUUGAAGCAGACGACUCGCUGAGGAUCCGAGA (stem-loop RNA; stem loop)	Putative PAS/PAC sensor protein full length assumed	32P well-retention assay, RiboGreen	folded RNA	together with: blue light	–	binding	binds

Excerpt of the above:
Molecule	target or system	test	system	setting	how to read	endpoint	value
DNA 1 CAACGTCATAGACGATTACATTGCTACATGGAGCTGTCTAGAGGATCCGA / DNA 2 GTCGGATCCTCTAGACAGCTCCATGATCACTGGCACTGGTAGAATTCGGC / DNA 3 TAGCAATGTAATCGTCTATGACGTT (dsDNA; partial fork, lagging strand only)	hel308 1-690 (Methanothermobacter thermautotrophicus, UniProt O26901)	EMSA	folded DNA	–	–	binding	binds
GGUUUGUUACUGAUAAAGCAGGCAAGACC (ssRNA (Bacillus subtilis); hairpin, two internal loops)	sacY 1-55 (Bacillus subtilis, UniProt P15401)	SPR	folded RNA	–	–	Kd	6.2 ± 2.5 µM
